Measured values pooled from the literature.
Numbered parts are unrelated; each lists some results of a single study. Positions count from the first letter of the parent shown.

Sample 1
Target: Sal-like protein 4, full length isoform B (SALL4, Homo sapiens, UniProt Q9UJQ4-2, residues 1-616)
Method: universal PBM
Form: double-stranded DNA, one strand shown
Medium: in vitro
Concentration: not given
Notes: 8-mer, flanks averaged, mean of replicates
Direction: higher = stronger binding
Construct (chain): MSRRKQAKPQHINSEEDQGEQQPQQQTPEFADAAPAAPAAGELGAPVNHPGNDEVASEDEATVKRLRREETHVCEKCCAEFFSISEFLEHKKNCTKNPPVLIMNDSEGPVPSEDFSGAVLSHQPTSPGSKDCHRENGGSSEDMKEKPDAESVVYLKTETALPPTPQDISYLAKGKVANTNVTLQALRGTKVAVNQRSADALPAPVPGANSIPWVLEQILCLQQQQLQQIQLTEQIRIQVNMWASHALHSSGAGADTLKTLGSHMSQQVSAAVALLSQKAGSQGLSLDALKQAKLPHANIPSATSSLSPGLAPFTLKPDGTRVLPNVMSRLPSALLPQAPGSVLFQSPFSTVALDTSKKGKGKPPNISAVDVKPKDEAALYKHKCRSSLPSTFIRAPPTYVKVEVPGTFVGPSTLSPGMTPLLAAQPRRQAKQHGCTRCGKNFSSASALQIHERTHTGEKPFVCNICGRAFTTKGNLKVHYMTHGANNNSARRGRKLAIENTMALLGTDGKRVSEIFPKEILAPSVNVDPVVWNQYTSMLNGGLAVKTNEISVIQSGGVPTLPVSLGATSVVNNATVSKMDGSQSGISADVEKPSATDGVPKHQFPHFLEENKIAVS
The E-score of `ACTTCGTA` is reported as -0.0866.
`AAATGGGA` gave an E-score of 0.0054.
The E-score of `ACACCCGA` is reported as -0.109.
With `ACCCGGGC` the E-score was -0.379.
`ATGTGCCA` has an E-score of 0.0398.
`TGCTGACA` has an E-score of 0.0373.
For `GACACAAC`, the E-score was 0.158.
With `AGTAGCCG` the E-score was -0.177.
`AACCCCAA` gave an E-score of -0.057.
`AAAAAAGG` has an E-score of 0.0579.
The E-score of `ACAACACG` is reported as 0.018.
`TCTCACAA` has an E-score of 0.153.
With `CCCGGTAA` the E-score was -0.176.
`GGCTTGAA` has an E-score of 0.0254.
`GTACCTTA` gave an E-score of 0.105.
For `CTCGAGCC`, the E-score was -0.163.
With `GAGGGATA` the E-score was -0.0563.
With `AGGATGGC` the E-score was -0.119.
`CGGTATCC` gave an E-score of -0.214.
`CGACGGCC` has an E-score of -0.299.
The E-score of `ATTCGATG` is reported as -0.00831.
The E-score of `CACCCAAG` is reported as -0.144.
`GTAAGGTA` has an E-score of 0.193.
`GTGCGCGA` has an E-score of -0.226.
The E-score of `GACAGCCA` is reported as -0.124.

Sample 2
Target: Histone acetyltransferase KAT6A, winged helix 2, GST fusion (KAT6A, Homo sapiens, UniProt Q92794, residues 85-181)
Method: protein binding microarray
Form: double-stranded DNA, one strand shown
Medium: in vitro
Concentration: not given
Notes: 8-mer, flanks averaged, mean of 2 arrays, mostly near background
Relative to: not given
Direction: higher = stronger binding
Residues (chain): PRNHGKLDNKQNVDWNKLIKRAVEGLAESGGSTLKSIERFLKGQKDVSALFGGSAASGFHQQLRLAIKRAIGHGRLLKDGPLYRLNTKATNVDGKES
`AGGCTGAG` has an E-score of -0.127.
`CTTGCACA` has an E-score of -0.0826.
`ACTTGCAC` has an E-score of -0.129.
For `GCGTATAC`, the E-score was 0.0797.
With `GAGACCAA` the E-score was -0.00965.
`AGTCACGC` gave an E-score of -0.15.
With `AGGAACTC` the E-score was -0.16.
For `AATCCTCA`, the E-score was -0.0695.
With `AACCGCGG` the E-score was 0.196.
`CTACATAA` gave an E-score of -0.208.
For `CCAATCCG`, the E-score was 0.106.
With `ATTATCTG` the E-score was 0.052.
For `CCTCGGAG`, the E-score was 0.236.
`GGTGGGCA` has an E-score of -0.0595.
`CTTTCAAA` gave an E-score of 0.148.
`CCAGCCGC` gave an E-score of 0.168.
For `ATAACTTG`, the E-score was -0.0309.
`GCGTGTCC` gave an E-score of 0.167.

Sample 3
Target: CCNA1, cyclin fold, Cln2 fusion (human)
Method: yeast growth competition, sequencing
Medium: yeast
Notes: weak parent motif
Relative to: not given
Direction: higher = stronger binding
Parent: PLK5 docking peptide (human); IFRKVGQRLLTQC
For `V5A`, “normalised enrichment score” read -0.295.
`Q12A` — result for “normalised enrichment score”: -0.37.
`F2A` — result for “normalised enrichment score”: 0.161.
For `L9A`, “normalised enrichment score” read -0.0837.
For `G6A`, “normalised enrichment score” read -0.765.
Under “normalised enrichment score”, `I1A` is recorded as -0.28.

Other studies, line by line
The fold induction of `PhoQ, residues 284 288 289 292 302 303 AGHLVA` is reported as 1.92 (PhoP, residues 12 14 15 18 19 NNFVT (Escherichia coli, UniProt P23836); Sort-seq, refers to: YFP reporter; E. coli; PhoQ-PhoP variant library, added: 10 µM Mg2+; relative to: high Mg2+ state, higher = stronger signaling).

Some of these lines once more (sample 1):
`ATGTGCCA` has an E-score of 0.0398.
`TGCTGACA` has an E-score of 0.0373.
For `GACACAAC`, the E-score was 0.158.
With `AGTAGCCG` the E-score was -0.177.
`AACCCCAA` gave an E-score of -0.057.
`AAAAAAGG` has an E-score of 0.0579.
The E-score of `ACAACACG` is reported as 0.018.
